Results of several laboratories.
Each line is one published result; not all experiments were run side by side. ± marks the error that the study gave.
PDGFRB: Platelet-derived growth factor receptor beta (PDGFRB, Homo sapiens, UniProt P09619)
HDAC10: Polyamine deacetylase HDAC10 (HDAC10, Homo sapiens, UniProt Q969S8)
KDR: Vascular endothelial growth factor receptor 2 (KDR, Homo sapiens, UniProt P35968)
CTSL: Procathepsin L (CTSL, Homo sapiens, UniProt P07711)
PDE3A: cGMP-inhibited 3',5'-cyclic phosphodiesterase 3A (PDE3A, Homo sapiens, UniProt Q14432)
MMP2: 72 kDa type IV collagenase (MMP2, Homo sapiens, UniProt P08253)
ALDH1A1: Aldehyde dehydrogenase 1A1 (ALDH1A1, Homo sapiens, UniProt P00352)
MAL12: Alpha-glucosidase MAL12 (MAL12, Saccharomyces cerevisiae S288c, UniProt P53341)
TYK2: Non-receptor tyrosine-protein kinase TYK2 (TYK2, Homo sapiens, UniProt P29597)

`COc1cc2nccc(Oc3ccc(NC(=S)NC4CC4)c(Cl)c3)c2cc1C(=O)N(C)C` has an IC50 of 0.414 µM (PDGFRB).
For `Cc1ccccc1/C=C/c1nc2ccccc2c(=O)[nH]1`, the IC50 was 0.159 ± 0.05 µM (Nucleoside transporter 1 (Plasmodium vivax, UniProt A5K8B0); yeast growth; purine auxotrophic yeast expressing target; 15 to 17 h, added: adenosine 1 mM).
`OC[C@@H]1NC[C@H](O)[C@@H]1O` gave an IC50 of 7500 µM (Lysosomal alpha-mannosidase (Drosophila melanogaster, UniProt Q9VKV1); pH 5.2, added: 2 mM pNP-Man).
For `COC(=O)c1ccc(Cn2sc3ccccc3c2=O)cc1`, the IC50 was over 10 µM (HDAC10; enzyme activity, inhibitor).
For `OC[C@H]1O[C@@H](Sc2ccccc2)[C@H](O)[C@@H](O)[C@@H]1O`, the IC50 was 30 µM (SLC5A1 (Homo sapiens, UniProt P13866); transporter uptake, inhibitor, radiometric).
For `COCCOCCOc1cc2nccc(Oc3ccc(NC(=O)NC4CC4)c(Cl)c3)c2cc1C(N)=O`, the IC50 was over 0.1 µM (PDGFRB; enzyme activity, inhibitor).
The IC50 of `COCc1cc2c(cn1)CN(C(=O)Nc1nc(-c3ccc(F)cc3)ccc1N)C2` is reported as over 30 µM (HDAC10; deacetylase activity, inhibitor, recombinant enzyme).
`COCCNC(=O)c1cc2c(Oc3ccc(NC(=S)NC4CC4)c(Cl)c3)ccnc2cc1OC` gave an IC50 of 0.12 µM (KDR).
`Cc1ccc(O)c(C)c1OCC(C)N` (centres unmarked) has an IC50 of 42.6 ± 4.6 µM (KCNH2 (Homo sapiens, UniProt Q12809, Y652A); inhibitor; CHO).
`N#Cc1nc(N2CCOCC2)nc(N(Cc2ccc(F)cc2)CC2CCCNC2)n1` (centres unmarked) has an IC50 of 1.2 µM (CTSL; enzyme activity, inhibitor, fluorescence).
The IC50 of `Nc1nc(Cl)nc2c1ncn2Cc1cc(OCC(F)F)cc(OC(F)F)c1` is reported as over 10 µM (PDE3A; enzyme activity, inhibitor).
`COc1cnc(COc2ccc(F)c(F)c2)cc1-c1cc2c([nH]1)CCNC2=O` gave an IC50 of 0.01 µM (CSNK1G2 (Homo sapiens, UniProt P78368); target engagement in cells, BRET).
With `Oc1c(C(Nc2nccs2)c2ccccc2OCc2ccccc2)ccc2cccnc12` (centres unmarked) the IC50 was 4.88 µM (Genome polyprotein, protease (Dengue virus type 2, UniProt P14340); enzyme activity, inhibitor, fluorescence).
`CC(C)C[C@@H]1NC(=O)[C@H]([C@@H](C)O)NC(=O)[C@H](Cc2ccccc2)NC(=O)CNC(=O)[C@H](Cc2c[nH]c3ccccc23)NC(=O)[C@H](Cc2c[nH]cn2)NC(=O)[C@H]([C@@H](C)O)NC(=O)[C@H]([C@@H](C)O)NC(=O)[C@H](C)NC(=O)C[C@@H](C(N)=O)NC1=O` gave an IC50 of 11 µM (MMP2; enzyme activity, inhibitor).
`CC1(C)C2CC3C(c4ccccc4)c4c(O)c(C=O)c(O)c(C=O)c4OC3(C)C1C2` (single isomer, unassigned; (+)) gave an IC50 of 6.8 µM (PFKL (Homo sapiens, UniProt P17858, K681R); enzyme activity, inhibitor).
For `COc1cc2nccc(Oc3ccc(NC(=S)N4CCC4)c(Cl)c3)c2cc1C(N)=O`, the IC50 was 0.0631 µM (PDGFRB).
`CCOC(=O)C(CS)NCCNC(CS)C(=O)OCC` (centres unmarked) gave an IC50 of 8.19 µM (Carbamate kinase (Giardia intestinalis, UniProt A8BB85); enzyme activity, ATP luminescence).
For `CC(C)CCN(Cc1ccccc1C#N)c1nc(C#N)nc(N2CCOCC2)n1`, the IC50 was 0.056 µM (CTSL; enzyme activity, inhibitor, fluorescence).
`CCC(c1nnnn1Cc1cccs1)N1CCN(c2nc3cc(N)cc(F)c3s2)CC1` (centres unmarked) has an IC50 of 45 µM (Deoxyribonuclease-1 (DNASE1, Bos taurus, UniProt P00639); enzyme activity, inhibitor, fluorescence DNA degradation; pH 7.5, added: FITC-labelled DNA substrate).
`COCC1CN(C2CCN(c3cc(OC)c(Nc4ncc(Br)c(Nc5ccc6c(c5P(C)(C)=O)OCCO6)n4)cc3C)CC2)C1` has an IC50 of under 0.0015 µM (EGFR (Homo sapiens, UniProt P00533, C797S/L858R); enzyme activity, inhibitor, TR-FRET).
The IC50 of `NC(=O)NC(c1ccccc1)(c1ccccc1)c1ccccc1` is reported as 8 µM (KCNN4 (Homo sapiens, UniProt O15554); ion current, inhibitor, patch clamp).
With `Cc1nc(NC(=O)N2CCCC2)sc1-c1csc(C(C)(C)C)n1` the IC50 was 6.5 µM (PIK3C2B (Homo sapiens, UniProt O00750); enzyme activity, inhibitor).
The IC50 of `COc1ccc(CCNc2ncnc3sccc23)cc1OC` is reported as 2.8 µM (NR2F2 (Homo sapiens, UniProt P24468); reporter gene, inhibitor; 293T transfected with NR2F2; 18 h).
For `CCn1c(-c2nc3ccc(C(=O)N4CCCC(N)C4)cc3n2C)cc2ccccc21` (centres unmarked), the IC50 was over 100 µM (PADI4 (Homo sapiens, UniProt Q9UM07); binding, fluorescence polarisation; added: 10 nM tracer displacement, 0 mM Ca2+).
For `Cn1c(=O)c2c(nc(CN3CCN(C(=O)C4CC4)CC3)n2Cc2ccccc2F)n(C)c1=O`, the IC50 was 0.39 ± 0.073 µM (ALDH1A1).
`O=C1C=C(CCc2ccc(OC3OC(CO)C(O)C(O)C3O)cc2)CCC1` (centres unmarked) gave an IC50 of over 100 µM (MAL12; enzyme activity, inhibitor, absorbance).
With `S=C(S)OC1CC2CC1C1CCCC21` (centres unmarked) the IC50 was 44.9 µM (Angiotensin-converting enzyme (Mus musculus, UniProt P09470); enzyme activity, inhibitor).
The IC50 of `O=C(O)CCC(=O)NNC(=O)c1cccnc1` is reported as 40 µM (Egl nine homolog 1 (EGLN1, Homo sapiens, UniProt Q9GZT9); inhibitor, AlphaScreen; bimodal curve, rough estimate, added: 2 µM 2-oxoglutarate).
With `COc1ccc(/N=N/c2ccc(O)c(C3c4c([nH]c(=S)[nH]c4=O)Nc4[nH]c(=S)[nH]c(=O)c43)c2)cc1OC` the IC50 was 0.67 µM (PTGS2 (Ovis aries, UniProt P79208); enzyme activity, inhibitor, ELISA).
`COc1cc2nccc(Oc3ccc(NC(=S)N[C@@H](C)CO)c(Cl)c3)c2cc1C(N)=O` gave an IC50 of 0.11 µM (KDR).
`C=CC1C(OC2OC(CO)C(O)C(O)C2O)OC=C(C(=O)OC)C1C=CCC(=O)OC` (centres unmarked) gave an IC50 of over 100 µM (MAL12; enzyme activity, inhibitor, absorbance).
The IC50 of `COC(=O)[C@]1(C)C=C(C(=O)Nc2cccc(C(=O)Nc3ccc(Nc4nccc(-c5cccnc5)n4)c(C)c3)c2)C(=O)CC1` is reported as 0.03 ± 0.005 µM (MAPK8 (Homo sapiens, UniProt P45983); kinase activity, inhibitor; added: GSH 10 mM).
The IC50 of `COc1ccc(Nc2nc(N)c(C(C)=O)s2)cc1` is reported as 1 µM (GSK3 (Trypanosoma brucei, UniProt Q388M1); enzyme activity, inhibitor, radiometric).
The IC50 of `CCN(CC)CCNC(=O)c1cc2c(Oc3ccc(NC(=S)NC4CC4)c(Cl)c3)ccnc2cc1OC` is reported as 0.102 µM (PDGFRB).
`CN(C(=O)c1ccn2ncc(-c3ccc(C(N)=O)cc3)c2c1)c1ccc(C#N)cn1` has an IC50 of over 10 µM (TYK2; enzyme activity, inhibitor).
For `CCCC[C@H](NC(=O)[C@H](Cc1ccccc1)NC(=O)[C@H](Cc1c[nH]cn1)NC(=O)CCNC(=O)[C@@H](NC(=O)[C@H](C)NC(=O)[C@H](Cc1c[nH]c2ccccc12)NC(=O)[C@H](CC(N)=O)NC(=O)[C@H](N)Cc1ccc(O)cc1)C(C)C)C(N)=O`, the IC50 was 0.0054 to 0.042 µM (NMBR (Homo sapiens, UniProt P28336); NMBR activity, cell-based).
`COc1cc2nccc(Oc3ccc(NC(=S)Nc4cccc(C(F)(F)F)c4)c(Cl)c3)c2cc1C(N)=O` has an IC50 of 0.118 µM (KDR).
With `NC1CCC(Nc2nccc(-c3cccnc3Oc3cc(Cl)c(NS(=O)(=O)c4ccccc4Cl)cc3F)n2)CC1` (centres unmarked) the IC50 was 0.0035 ± 0.0014 µM (Serine/threonine-protein kinase/endoribonuclease IRE2, RNase domain (ERN2, Homo sapiens, UniProt Q76MJ5); RNase activity, inhibitor; added: XBP1 mini-substrate).
`COc1cc(Oc2ccnc3cc(OC)c(C(N)=O)cc23)ccc1NC(=S)NC1CC1` gave an IC50 of 0.054 µM (PDGFRB).
`CC1=C(C2=C(C)C(=O)c3c(cc(O)c(O)c3Cc3ccccc3)C2=O)C(=O)c2cc(O)c(O)c(Cc3ccccc3)c2C1=O` (racemic) gave an IC50 of 0.144 µM (Bcl-2-related protein A1 (Homo sapiens, UniProt Q16548); ligand displacement, FP).
`O=C(CNc1nc(Cl)nc(NNC(=O)c2ccc(Nc3nc(Nc4ccc(C(=O)NNc5nc(Cl)nc(NCC(=O)NO)n5)cc4)nc(Nc4ccc(C(=O)NNc5nc(Cl)nc(NCC(=O)NO)n5)cc4)n3)cc2)n1)NO` has an IC50 of 0.541 µM (MMP2; enzyme activity, inhibitor, fluorescence).
The IC50 of `COc1cc2ncnc(Oc3ccc(Nc4nccc5[nH]cc(-c6ccc(F)cc6)c(=O)c45)cc3F)c2cc1OC` is reported as 0.0473 µM (MET (Homo sapiens, UniProt P08581); HGF-induced autophosphorylation, inhibitor, ELISA; MKN-45).
The IC50 of `N#C/C(=C\c1cccc(-c2cnc3[nH]cnc3c2)c1)C(N)=O` is reported as over 10 µM (TYK2; kinase activity, inhibitor; up to highest tested, added: ATP at Km).
With `NC1CCC(Nc2nccc(-c3cccnc3Oc3ccc(NS(=O)(=O)c4ccccc4Cl)cc3F)n2)CC1` (centres unmarked) the IC50 was 0.24 ± 0.05 µM (Serine/threonine-protein kinase/endoribonuclease IRE1, RNase domain (ERN1, Homo sapiens, UniProt O75460); RNase activity, inhibitor; added: XBP1 mini-substrate).
The IC50 of `O=C(O)CC[C@H](NC(=O)N[C@@H](CCCCNC(=O)CCCCCCC(=O)NCCCCNC(=O)CN1CCN(CC(=O)O)CCN(CC(=O)O)CCN(CC(=O)O)CC1)C(=O)O)C(=O)O` is reported as over 10 µM (Integrin alpha-V/beta-3 (Homo sapiens, UniProt P05106+P06756); ligand displacement, FP).
With `Cc1cccc(Cn2c(CN3CCN(C(=O)C4CC4)CC3)nc3c2c(=O)n(C)c(=O)n3C)c1` the IC50 was 0.033 ± 0.005 µM (ALDH1A1).
With `COc1ccc(O[C@@H]2O[C@H](COS(=O)(=O)O)[C@H](OS(=O)(=O)O)[C@H](O[C@@H]3O[C@H](C(=O)O)[C@@H](O[C@@H]4O[C@H](COS(=O)(=O)O)[C@H](OS(=O)(=O)O)[C@H](O[C@@H]5O[C@H](C(=O)O)[C@@H](OS(=O)(=O)O)[C@H](O)[C@H]5O)[C@H]4NC(C)=O)[C@H](O)[C@H]3O)[C@H]2NC(C)=O)cc1` the IC50 was 136 µM (Midkine (Homo sapiens, UniProt P21741); heparin hexasaccharide binding, inhibitor, fluorescence polarisation competition; added: fluorescein-labelled hexasaccharide probe).
`CC(/C=C/C(=O)NO)=C\[C@@H](C)C(=O)c1ccc(N(C)C)cc1` has an IC50 of over 50 µM (PTPN11 (Homo sapiens, UniProt Q06124, D61V); enzyme activity, inhibitor, fluorescence).
For `COc1cc2nccc(Oc3cc(Cl)c(NC(=S)NC4CC4)cc3F)c2cc1C(N)=O`, the IC50 was 0.0688 µM (PDGFRB).
`O=C1C2=C(Nc3ccccc3SC2c2ccsc2)c2ccccc21` (racemic) has an IC50 of over 20 µM (Type II NADH dehydrogenase (Plasmodium falciparum, UniProt Q8I302); enzyme activity, inhibitor, fluorescence NAD+ quantitation; recombinant enzyme).
The IC50 of `Cc1ccc(NC(=O)CNS(=O)(=O)c2nc(-c3ccc(OC(F)(F)F)cc3)cc(C(F)(F)F)n2)cc1` is reported as 0.225 µM (WRN (Homo sapiens, UniProt Q14191); ATPase activity, inhibitor, ADP-Glo; added: ATP 60 µM).
`Cc1cc(=O)[nH]c2ccc(OCCCC(=O)N3CCOCC3)cc12` gave an IC50 of 0.7 µM (PDE3A; enzyme activity, inhibitor, FP).
`C#CCOc1cccc(Oc2nc3c(c(=O)n(CCCO)c(=O)n3C)n2Cc2ccc(C3(C(F)(F)F)N=N3)cc2)c1` gave an IC50 of 0.017 µM (TRPC4 (Homo sapiens, UniProt Q9UBN4); calcium signal, inhibitor, fluorescence).
